Published values gathered from unrelated publications.
Parts stem from different laboratories: compare values within a part only.
UniProt P9WI81, sequence (whole entry, looked up): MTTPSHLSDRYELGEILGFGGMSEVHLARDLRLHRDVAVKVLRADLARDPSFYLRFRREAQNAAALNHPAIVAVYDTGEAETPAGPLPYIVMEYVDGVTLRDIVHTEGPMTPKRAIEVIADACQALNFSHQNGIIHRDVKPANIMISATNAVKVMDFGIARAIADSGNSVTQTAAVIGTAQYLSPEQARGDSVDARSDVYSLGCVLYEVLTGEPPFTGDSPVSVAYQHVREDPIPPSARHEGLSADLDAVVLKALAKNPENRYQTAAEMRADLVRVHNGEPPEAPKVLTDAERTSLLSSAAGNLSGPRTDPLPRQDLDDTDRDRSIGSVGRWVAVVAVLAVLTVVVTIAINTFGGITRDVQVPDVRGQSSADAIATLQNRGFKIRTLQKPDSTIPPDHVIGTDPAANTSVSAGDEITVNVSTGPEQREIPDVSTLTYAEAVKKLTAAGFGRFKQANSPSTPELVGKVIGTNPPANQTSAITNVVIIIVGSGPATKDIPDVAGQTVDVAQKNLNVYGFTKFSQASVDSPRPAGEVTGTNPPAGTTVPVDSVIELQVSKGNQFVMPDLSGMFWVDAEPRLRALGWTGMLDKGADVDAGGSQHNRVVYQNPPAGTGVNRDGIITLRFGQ
UniProt P29376, sequence (whole entry, looked up): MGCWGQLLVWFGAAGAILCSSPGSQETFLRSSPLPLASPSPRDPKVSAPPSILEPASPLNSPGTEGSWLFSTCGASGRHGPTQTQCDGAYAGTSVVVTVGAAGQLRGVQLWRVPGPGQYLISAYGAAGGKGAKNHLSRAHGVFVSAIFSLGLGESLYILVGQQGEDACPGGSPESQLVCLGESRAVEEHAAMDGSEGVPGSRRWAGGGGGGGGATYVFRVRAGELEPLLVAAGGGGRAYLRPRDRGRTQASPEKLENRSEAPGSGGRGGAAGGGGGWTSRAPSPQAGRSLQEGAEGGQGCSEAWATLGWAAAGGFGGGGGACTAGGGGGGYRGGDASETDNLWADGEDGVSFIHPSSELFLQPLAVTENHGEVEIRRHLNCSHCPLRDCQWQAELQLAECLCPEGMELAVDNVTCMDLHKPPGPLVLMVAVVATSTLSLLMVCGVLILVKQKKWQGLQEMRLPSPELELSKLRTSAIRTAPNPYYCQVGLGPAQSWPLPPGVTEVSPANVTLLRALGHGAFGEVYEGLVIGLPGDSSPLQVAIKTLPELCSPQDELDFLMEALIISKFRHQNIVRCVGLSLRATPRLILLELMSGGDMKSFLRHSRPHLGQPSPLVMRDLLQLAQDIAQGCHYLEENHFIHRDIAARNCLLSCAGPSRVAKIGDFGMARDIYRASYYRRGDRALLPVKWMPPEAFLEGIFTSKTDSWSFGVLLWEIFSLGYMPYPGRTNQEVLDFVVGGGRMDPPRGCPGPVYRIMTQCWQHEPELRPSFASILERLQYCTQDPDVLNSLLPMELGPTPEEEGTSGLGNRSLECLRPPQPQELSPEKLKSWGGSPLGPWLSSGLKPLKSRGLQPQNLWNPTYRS
UniProt P62344, sequence (whole entry, looked up): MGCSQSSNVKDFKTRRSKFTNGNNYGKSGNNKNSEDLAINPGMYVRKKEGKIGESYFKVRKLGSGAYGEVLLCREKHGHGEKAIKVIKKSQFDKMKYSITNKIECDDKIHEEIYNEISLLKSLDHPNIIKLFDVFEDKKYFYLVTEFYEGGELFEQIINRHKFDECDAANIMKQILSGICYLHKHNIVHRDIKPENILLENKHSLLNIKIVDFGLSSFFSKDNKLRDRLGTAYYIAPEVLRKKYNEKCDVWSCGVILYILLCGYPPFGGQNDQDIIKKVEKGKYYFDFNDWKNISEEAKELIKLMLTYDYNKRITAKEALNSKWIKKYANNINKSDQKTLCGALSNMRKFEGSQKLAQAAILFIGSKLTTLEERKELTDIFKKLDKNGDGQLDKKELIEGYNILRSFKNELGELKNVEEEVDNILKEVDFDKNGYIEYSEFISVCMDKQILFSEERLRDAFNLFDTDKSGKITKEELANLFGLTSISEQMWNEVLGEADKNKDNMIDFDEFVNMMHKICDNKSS

Block 1
Target: Calcium/calmodulin-dependent protein kinase type II subunit alpha (CAMK2A, Homo sapiens, UniProt Q9UQM7)
UniProt Q9UQM7, sequence (whole entry, looked up): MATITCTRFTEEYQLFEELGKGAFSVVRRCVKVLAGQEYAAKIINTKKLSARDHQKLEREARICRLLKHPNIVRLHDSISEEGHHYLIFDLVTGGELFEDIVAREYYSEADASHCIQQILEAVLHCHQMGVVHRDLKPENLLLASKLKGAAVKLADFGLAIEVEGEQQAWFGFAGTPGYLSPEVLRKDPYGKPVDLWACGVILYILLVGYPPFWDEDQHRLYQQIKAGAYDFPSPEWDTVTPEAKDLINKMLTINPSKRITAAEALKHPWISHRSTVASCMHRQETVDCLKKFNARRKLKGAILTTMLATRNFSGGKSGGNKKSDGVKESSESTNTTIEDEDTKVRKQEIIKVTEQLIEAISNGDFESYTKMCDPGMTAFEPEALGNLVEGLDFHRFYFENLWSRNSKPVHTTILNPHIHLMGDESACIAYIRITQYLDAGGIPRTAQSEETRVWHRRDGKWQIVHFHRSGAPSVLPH
Observed: enzyme activity
Action: inhibitor
Concentration: 10 µM
Structure (SMILES) | inhibition [%]
COc1cc2ccc(=O)oc2c2ccoc12 | -12
CCN1C[C@]2(COC)[C@H](O)C[C@H](OC)[C@]34C1[C@H]([C@H](OC)[C@H]23)[C@@]1(OC(C)=O)C[C@H](OC)[C@@]2(O)C[C@@H]4[C@@H]1[C@H]2OC(=O)c1ccc(OC)cc1 | -5
O=C1NCN(c2ccccc2)C12CCN(CCCOc1ccc(F)cc1)CC2 | 4
O=c1[nH]c2ccccc2o1 | -3

Block 2
Cell line: A-375
Concentration: 100 µM
Time: 18 h
SMILES | viability [%]
CCN(CC)CCOC(=O)C(O)(c1ccccc1)c1ccccc1 | 98.3
O=C1CC[C@@]2(O)[C@H]3Cc4ccc(O)c5c4[C@@]2(CCN3CC2CC2)[C@H]1O5 | 103
C#C[C@]1(O)C=C[C@H]2[C@@H]3CCC4=CC(=O)CC[C@@H]4[C@H]3CC[C@@]21CC | 62.7
CC(CCc1ccccc1)NC(C)C(O)c1ccc(O)cc1 (stereo not drawn) | 97.3
CC(C)=CCOc1c2occc2cc2ccc(=O)oc12 | 80.7

Block 3
Target: Serine/threonine-protein kinase 33 (STK33, Homo sapiens, UniProt Q9BYT3)
UniProt Q9BYT3, sequence (whole entry, looked up): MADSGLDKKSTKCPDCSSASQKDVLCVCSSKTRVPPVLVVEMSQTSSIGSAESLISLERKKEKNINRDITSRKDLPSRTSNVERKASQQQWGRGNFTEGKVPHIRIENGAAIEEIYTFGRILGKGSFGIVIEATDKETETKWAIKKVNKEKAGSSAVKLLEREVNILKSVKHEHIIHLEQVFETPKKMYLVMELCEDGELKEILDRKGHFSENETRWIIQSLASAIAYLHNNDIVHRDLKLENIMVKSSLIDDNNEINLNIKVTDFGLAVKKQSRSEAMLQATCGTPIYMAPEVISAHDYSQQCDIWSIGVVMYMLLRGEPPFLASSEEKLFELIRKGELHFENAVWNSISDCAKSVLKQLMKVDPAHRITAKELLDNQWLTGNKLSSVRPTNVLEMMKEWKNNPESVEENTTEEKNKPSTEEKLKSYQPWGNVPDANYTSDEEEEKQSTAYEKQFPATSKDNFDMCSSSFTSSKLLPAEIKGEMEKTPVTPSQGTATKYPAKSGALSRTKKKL
Observed: enzyme activity
Action: inhibitor
Method: radiometric
Concentration: 0.5 µM
Compound | remaining activity
COc1ccc(Cl)cc1NC(=O)Nc1cc(C)nc2ccccc12 | 103%
O=C1NC(=O)/C(=C/c2ccc3nccnc3c2)S1 | 66.3%
Cn1cnc2cc3c(Nc4cccc(Br)c4)ncnc3cc21 | 99.3%
CCN1/C(=C/C(C)=O)Sc2ccc(OC)cc21 | 57.4%
CS(=O)(=O)CCNCc1ccc(-c2ccc3ncnc(Nc4ccc(OCc5cccc(F)c5)c(Cl)c4)c3c2)o1 | 94.7%
CC(=O)O/N=C1/C(c2c(O)[nH]c3cc(Br)ccc23)=Nc2ccccc21 | 70.3%
Nc1[nH]nc2nnc(-c3c(-c4ccccc4)nn4ccccc34)cc12 | 100%
COc1cc2ncnc(N3CCN(C(=O)Nc4ccc(Oc5ccccc5)cc4)CC3)c2cc1OC | 94.7%
CCOc1cc2ncnc(Nc3cccc(Br)c3)c2cc1OCC | 93.9%
CC(C)[C@H](CO)Nc1nc(Nc2cccc(Cl)c2)c2ncn(C(C)C)c2n1 | 74.4%
O=C(Nc1ccc(Cl)cc1)c1ccccc1NCc1ccncc1 | 86.4%
O=c1cc(N2CCOCC2)oc2c1ccc1ccccc12 | 97.5%
COc1ccc(-c2cnc3c(-c4ccsc4)cnn3c2)cc1 | 71.6%
COc1cc2ncnc(Nc3ccc(OCc4ccccc4)cc3)c2cc1OC | 109%
COc1cc2ncc(-c3ccccc3)nc2cc1OC | 91.7%
CCC(=O)Nc1ccc2ncnc(Nc3cccc(Br)c3)c2c1 | 94.1%
CC(C)c1nn(-c2c(Cl)cccc2Cl)c2nc(Cc3ccc(OCCO)cc3)[nH]c(=O)c12 | 97.5%
Cn1cc(/C=C2\C(=O)Nc3ccc(S(N)(=O)=O)cc32)c2ccccc21 | 46.3%
C[S+]([O-])c1ccc(-c2nc(-c3ccncc3)c(-c3ccc(F)cc3)[nH]2)cc1 (stereo not drawn) | 98.1%
N/C(=N\[N+](=O)[O-])N/N=C\c1ccc(-c2cccc([N+](=O)[O-])c2)o1 | 102%
CN(C)CCCn1cc(C2=C(c3c[nH]c4ccccc34)C(=O)NC2=O)c2ccccc21 | 62.9%

Block 4
Cell line: HEK-293T/ACE2
Concentration: concentration not given
Time: 16 (unit not given)
Baseline: vehicle
SMILES | viability
N#C[C@@H]1C[C@@H]2C[C@@H]2N1C(=O)[C@@H](N)C12CC3CC(CC(O)(C3)C1)C2 | 103%
COc1ccc([C@@H]2Sc3ccccc3N(CCN(C)C)C(=O)[C@@H]2OC(C)=O)cc1 | 103%
Nc1cc(N2CCCCC2)nc(N)[n+]1[O-] | 99.2%
CCCCCCOC(=O)NC(=N)c1ccc(NCc2nc3cc(C(=O)N(CCC(=O)OCC)c4ccccn4)ccc3n2C)cc1 | 98.7%
CC1=C(C(=O)O)N2C(=O)[C@@H](NC(=O)[C@H](N)c3ccc(O)cc3)[C@H]2SC1 | 102%
CCN(CC)C(=S)SSC(=S)N(CC)CC | 95.7%
N=C(N)NC(=O)c1nc(Cl)c(N)nc1N | 103%

Single results of other studies
Observed: cell-free assay
Concentration: 1 µM
CRK2: Cyclin-dependent kinase 2 homolog (CRK2, Plasmodium falciparum, UniProt P61075)
UniProt P61075, sequence (whole entry, looked up): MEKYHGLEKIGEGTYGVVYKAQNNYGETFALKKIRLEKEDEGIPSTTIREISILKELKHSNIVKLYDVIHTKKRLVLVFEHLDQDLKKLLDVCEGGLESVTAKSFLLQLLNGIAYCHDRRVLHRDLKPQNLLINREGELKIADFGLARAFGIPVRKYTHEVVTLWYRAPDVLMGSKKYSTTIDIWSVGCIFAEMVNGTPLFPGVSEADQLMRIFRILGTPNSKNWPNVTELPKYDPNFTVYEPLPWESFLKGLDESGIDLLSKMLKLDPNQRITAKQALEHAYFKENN
SMILES | target | method | endpoint | value
Cc1nc(C2CCN(C(=O)c3ccc(OC(F)(F)F)cc3N)CC2)c2ncc(N3CCN(C)CC3)cc2n1 | CRK2 | competition with immobilised ligand | remaining binding | 100%
C=CC(=O)N1CCC([C@@H]2CCNc3c(C(N)=O)c(-c4ccc(Oc5ccccc5)cc4)nn32)CC1 | Leukocyte tyrosine kinase receptor (LTK, Homo sapiens, UniProt P29376) |  | inhibition | 0%
N#CC1(c2ccccn2)CCN(Cc2cc(C(=O)N3CCCC3)c(=O)n3ccccc23)CC1 | Calcium-dependent protein kinase 1 (CDPK1, Plasmodium falciparum, UniProt P62344) | competition with immobilised ligand | remaining binding | 84%
CC(=O)c1c(NS(C)(=O)=O)c2cc(-c3ccc(Cl)cc3)c(-c3ccc(Cl)cc3Cl)nc2n(C)c1=O | CRK2 | competition with immobilised ligand | remaining binding | 100%
Cc1c(NC(=O)c2cc(C(N)=O)nc3cc(F)ccc23)c(C(F)(F)F)nn1Cc1ccc(C(C)(C)C)cc1 | Serine/threonine-protein kinase PknB (pknB, Mycobacterium tuberculosis, UniProt P9WI81) | competition with immobilised ligand | remaining binding | 95%

Some of these lines once more (block 3):
Compound | remaining activity
COc1ccc(-c2cnc3c(-c4ccsc4)cnn3c2)cc1 | 71.6%
COc1cc2ncnc(N3CCN(C(=O)Nc4ccc(Oc5ccccc5)cc4)CC3)c2cc1OC | 94.7%
Nc1[nH]nc2nnc(-c3c(-c4ccccc4)nn4ccccc34)cc12 | 100%
COc1cc2ncc(-c3ccccc3)nc2cc1OC | 91.7%
CCOc1cc2ncnc(Nc3cccc(Br)c3)c2cc1OCC | 93.9%
CC(=O)O/N=C1/C(c2c(O)[nH]c3cc(Br)ccc23)=Nc2ccccc21 | 70.3%
